Results gathered from unrelated publications.
Each line is one published result; not all experiments were run side by side. “And” joins repeats or separate records; there may be more than shown. Numbers after ± are the reported error.
Ubiquitin carboxyl-terminal hydrolase 39 ZnF-UBD domain: Ubiquitin carboxyl-terminal hydrolase 39, ZnF-UBD domain (Homo sapiens, UniProt Q53GS9)
Chain of UniProt Q53GS9 (whole entry, looked up): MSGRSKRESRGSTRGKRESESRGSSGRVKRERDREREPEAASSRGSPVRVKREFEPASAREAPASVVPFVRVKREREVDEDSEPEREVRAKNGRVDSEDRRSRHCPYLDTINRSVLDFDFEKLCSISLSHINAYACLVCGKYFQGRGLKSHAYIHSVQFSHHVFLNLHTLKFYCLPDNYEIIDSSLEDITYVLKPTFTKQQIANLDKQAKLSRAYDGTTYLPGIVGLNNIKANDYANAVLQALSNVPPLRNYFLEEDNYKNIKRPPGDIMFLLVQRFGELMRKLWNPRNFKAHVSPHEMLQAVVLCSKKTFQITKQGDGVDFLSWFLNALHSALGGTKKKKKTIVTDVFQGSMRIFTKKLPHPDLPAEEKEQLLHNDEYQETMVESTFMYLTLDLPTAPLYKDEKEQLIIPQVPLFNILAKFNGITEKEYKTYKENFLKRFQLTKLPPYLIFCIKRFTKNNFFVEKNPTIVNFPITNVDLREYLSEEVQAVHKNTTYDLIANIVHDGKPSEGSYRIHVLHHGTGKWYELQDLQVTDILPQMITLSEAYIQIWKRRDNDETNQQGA

`CCOC(=O)N1C[C@@H](c2cccc(Br)c2)N[C@@H](C(CC)CC)C1` gave a logD of over 4.7 (shake-flask, 1-octanol/buffer; pH 7.4).
With `c1ccc(CN2CCCN3CCN(Cc4ccccc4)CCCN(CC2)Cc2cccc(n2)C3)cc1` the intact complex was 98% (64Cu complex in rat plasma; 12 h, 37 °C).
`CNCCOC12CC3(C)CC(C)(CC(Cn4ncc(-c5ccc(N6CCc7cccc(C(=O)Nc8nc9ccccc9s8)c7C6)nc5C(=O)O)c4C)(C3)C1)C2`: “heart rate change” -1% (beagle dog, male, anaesthetised; intravenous bolus, 0.03 mg/kg, 150 min; reference: baseline).
`C/C=C/C[C@@H](C)C(=O)[C@H]1C(=O)N[C@@H](C(C)C)C(=O)N(C)CC(=O)N(C)[C@@H](CC(C)C)C(=O)N[C@@H](C(C)C)C(=O)N(C)[C@@H](CC(C)C)C(=O)N[C@@H](C)C(=O)N[C@H](C)C(=O)N(C)[C@@H](CC(C)C)C(=O)N(C)[C@@H](CC(C)C)C(=O)N(C)[C@@H](C(C)C)C(=O)N1C`: “free plasma concentration” 976 ng/mL (Sprague Dawley rat, plasma; intravenous infusion, 2.67 mg/h/kg, 4 h, 4.5 h constant infusion).
With `OCc1nc2ccc(NCc3ccc(C(F)(F)F)cc3)cc2[nH]1` the tissue concentration was 1.5 ± 0.3 ng/g (Balb/c mouse, male, kidney; oral, 10 mg/kg, 48 h).
`O=C(O)CCc1cn2cccnc2n1` gave a Kd of over 1 mM (Ubiquitin carboxyl-terminal hydrolase 39 ZnF-UBD domain).
With `C=CC(=O)Nc1cc(Nc2nccc(-c3cn(C4CC4)c4ccccc34)n2)c(OC)cc1N(C)CCN(C)C` the HGB was 152 ± 4.62 g/L (BALB/c nude mouse, LU0387 xenograft, blood; oral, 40 mg/kg).
`C[N+](C)([O-])CCCN1c2ccccc2CCc2ccccc21`: “chromatographic hydrophobicity index” 67.5 (reverse phase LC, C18; acetonitrile gradient, 0.1% formic acid; converted from retention time; reference: Valko CHI standards).
For `CC(=O)NCCc1c[nH]c2ccc(O)cc12`, “z-scored log2 fold change” read 0.594 (binding, equilibrium dialysis LC-MS; 5 µM, thermostabilized A2AR-BRIL construct; reference: no-protein control, direction not given).
For `Cc1nc2cccc(OCC(C)(C)C(=O)NC(C)C)c2c(N)c1C(=O)O`, the Cmax ratio was 0.62 (female Sprague-Dawley rat, plasma; dietary, 100 mg/kg/day; reference: day 90 over day 7).
For `CC[C@H](C)[C@H](NC(=O)[C@H](Cc1ccccc1)NC(=O)[C@H](CCC(=O)O)NC(=O)[C@H](CCCCNC(=O)COCCOCCNC(=O)COCCOCCNC(=O)CC[C@H](NC(=O)CCCCCCCCCCCCCCCCC(=O)O)C(=O)O)NC(=O)[C@H](C)NC(=O)[C@H](C)NC(=O)[C@H](CCC(N)=O)NC(=O)CNC(=O)[C@H](CCC(=O)O)NC(=O)[C@H](CC(C)C)NC(=O)[C@H](Cc1ccc(O)cc1)NC(=O)[C@H](CO)NC(=O)[C@H](CO)NC(=O)[C@@H](NC(=O)[C@H](CC(=O)O)NC(=O)[C@H](CO)NC(=O)[C@@H](NC(=O)[C@H](Cc1ccccc1)NC(=O)[C@@H](NC(=O)CNC(=O)[C@H](CCC(=O)O)NC(=O)C(C)(C)NC(=O)[C@@H](N)Cc1cnc[nH]1)[C@@H](C)O)[C@@H](C)O)C(C)C)C(=O)N[C@@H](C)C(=O)N[C@@H](Cc1c[nH]c2ccccc12)C(=O)N[C@@H](CC(C)C)C(=O)N[C@H](C(=O)N[C@@H](CCCNC(=N)N)C(=O)NCC(=O)N[C@@H](CCCNC(=N)N)C(=O)NCC(=O)O)C(C)C`, “subjects with moderate AEs” read 12.5% (Caucasian subjects; 1.0 mg).
For `C[C@@H]1CCC[C@H](n2cnc(-c3cc(Cl)ccc3-n3cc(Cl)nn3)cc2=O)c2cc(ccn2)-c2c(cnn2C(F)F)NC1=O`, the oral bioavailability was 14% (rabbit; oral, 20 mg/kg; reference: 0.8 mg/kg intravenous).
`COC(=O)c1ccc([C@H]2COC(C)(C)[C@@H](c3ccc(Cl)c(Cl)c3)N2)cc1` gave a logD of over 4.7 (shake-flask, 1-octanol/buffer; pH 7.4).
`CC[C@H](C)[C@H](N)C(=O)N[C@H]1CSSC[C@@H](C(=O)N[C@H](C(N)=O)[C@@H](C)O)NC(=O)[C@H](CCCNC(=N)N)NC(=O)[C@H](Cc2c[nH]cn2)NC(=O)[C@H](Cc2c[nH]cn2)NC(=O)CNC(=O)[C@H](Cc2c[nH]c3ccccc23)NC(=O)[C@H](CC(=O)O)NC(=O)[C@H](CCC(N)=O)NC(=O)[C@H](C(C)C)NC(=O)[C@H](C(C)C)NC1=O`: “log retention factor” -0.44 (isocratic RP-HPLC, C18; 32% acetonitrile, phosphate pH 7.4, 1% TFA; 25 °C).
Under “diastolic blood pressure”, `CCN1/C(=C/C(C)=O)Sc2ccc(F)cc21` is recorded as 81 ± 5 mmHg (cynomolgus monkey; oral, 10 mg/kg, 6 h post-dose).
`O=C(Nc1nc2cccc(-c3ccc(CN4CCS(=O)(=O)CC4)cc3)n2n1)C1CC1` — result for “treatment-emergent adverse events”: 0% (item: cystitis; human rheumatoid arthritis patients; oral, 200 mg once daily, 4 weeks, regardless of relatedness).
For `CCOc1c([C@H](C)n2nc(C)c3c(N)ncnc32)cc(Cl)c(F)c1[C@@H]1CNC(=O)C1`, the Cmax was 791 ± 502 nM (patients, monotherapy; oral, 10 mg once daily, cycle 1 day 1).
`CC(C)(C)c1ccc([C@H]2COC[C@@H](C3CCCC3)N2)cc1` has a logD of over 4.7 (shake-flask, 1-octanol/buffer; pH 7.4).
`C=CCN1CC(=O)N2[C@@H](Cc3ccc(O)cc3F)C(=O)N(Cc3cccc(N4CC(N5CCN(CC)CC5)C4)n3)C[C@@H]2N1C(=O)NCc1ccccc1`: “treatment-related decreased appetite” 0% (advanced solid tumour patients; oral, 10 mg twice daily, any grade, dose-escalation).
The logD of `Cc1ccc([C@H]2N[C@@H](c3ccc(-c4ccccn4)cc3)CO[C@@H]2C)cc1` is reported as over 4.7 (shake-flask, 1-octanol/buffer; pH 7.4).
For `CCOC(=O)c1c(NC(=O)CNC(C)C)sc2c1CCCCC2`, the brain concentration was 177 ng/g (mice (male), brain; intraperitoneal, 5 mg/kg, 1 h).
For `CCC(C)n1ncn(-c2ccc(N3CCN(c4ccc(OCC5COC(Cn6cncn6)(c6ccc(Cl)cc6Cl)O5)cc4)CC3)cc2)c1=O` (centres unmarked), the adverse events was 7% (healthy human volunteers; oral, 200 mg, event Diarrhoea, continued dosing).
`CCN1CCN(Cc2ccc(Nc3ncc(F)c(-c4cc(F)c5nc(CO)n(C(C)C)c5c4)n3)nc2)CC1` has an intrinsic clearance of 452 L/h (human, liver; population PK model estimate).
With `CN(C)CCNS(=O)(=O)c1ccc(N/C=C2\C(=O)Nc3ccccc32)cc1` the logD was 1.67 (octanol/buffer; 67 µM, pH 7.4).
With `O=C(O)Cc1nc2ccccc2o1` the Kd was over 1 mM (Ubiquitin carboxyl-terminal hydrolase 39 ZnF-UBD domain).
`C[C@@H](Oc1ccc(S(C)(=O)=O)cc1C(=O)N1C[C@@H]2C[C@]2(c2cc(C(F)(F)F)on2)C1)C(F)(F)F` has a half-life of 2.2 days (LC-MS/MS; elderly human subjects, plasma; oral, 25 mg once daily, steady state, multiple doses).
For `COc1cc2c3c(n(CCCN4CCOCC4)c(=O)c2cc1OC)-c1cc2c(cc1C3=O)OCO2`, the CL/F was 274 L/h/m² and 738 L/h/m² (beagle dog, female, plasma; oral, 1720 mg/m^2, gelatin capsule).
The HGB of `CCC(=O)N(CCC(c1ccc2c(c1)OCO2)c1ccccc1OC)Cc1ccccc1` (centres unmarked) is reported as 150 g/L (female athymic nude mouse, blood; i.p., 60 mg/kg twice daily, 14 days, group mean).
For `C=CC(=O)N1CCC([C@@H]2CCNc3c(C(N)=O)c(-c4ccc(Oc5ccccc5)cc4)nn32)CC1`, “stability relative error” read -0.8% (rat plasma; 400 ng/mL, 21 days, -80 °C; reference: nominal concentration).
Under “change in clinical chemistry or haematology parameter”, `CCc1cc(C(=O)NC)c2nccc(N3CCc4c(cc(Cn5ccnc5)cc4-c4cn(C)nc4C(F)(F)F)C3=O)c2c1` is recorded as 180% (item: TBA; Sprague Dawley rat; oral, 50 mg/kg once daily, 7 days; reference: vehicle).
For `CC(C)(C(=O)N1CCOc2c(C#N)cncc2C1)C(F)F`, “subjects with adverse event” read 0% (item: ALT increased; human; oral, 10 mg once daily, 14 days, multiple ascending dose).
The QT interval of `CN1C[C@H](COc2nccc3c(NCc4ccco4)cc(Cl)nc23)OC1=O` is reported as 193 ms (rabbit NZW female, isolated Langendorff heart; 3 µM, 15 min).
The CL/F of `Cl.[2H]C([2H])([2H])CC(=O)c1cnc(NC(=O)C2CC2)cc1Nc1cccc(-c2ncn(C([2H])([2H])[2H])n2)c1OC` is reported as 19.2 L/h (geometric mean; human; 20 mg twice daily, day 1, fed, liquid, multiple dose).
For `C=CCn1c(=O)c2cnc(Nc3ccc(N4CCN(C)CC4)cc3)nc2n1-c1ccc2c(n1)[C@@](O)(CC)CC2`, the AUC(0-24) was 44000 ng·h/mL (female NOD/SCID mouse OVCAR-3 xenograft, plasma; oral, 100 mg/kg once daily, :2).
`NC1(C(=O)N[C@@H](CCO)c2ccc(Cl)cc2)CCN(c2nc[nH]c3nccc2-3)CC1`: “incidence of Fatigue” 33.3% (metastatic CRPC patients; dose not given, any grade, treatment-related, all doses, added: enzalutamide 160 mg daily).
Under “urinary magnesium excretion change”, `Cc1ccc([C@@H]2O[C@H](CO)[C@@H](O)[C@H](O)[C@H]2O)cc1Cc1ccc(-c2ccc(F)cc2)s1` is recorded as -13.7 mg (Japanese type 2 diabetes patients; 200 mg, day 3, 24 h urine collection; reference: baseline).
`C=CC(=O)N1CCC[C@@H](n2nc(-c3ccc(Oc4ccccc4)cc3)c3c(N)ncnc32)C1`: “cysteine adduct formation” 96% (PBS; 100 µM, 23 h, pH 8, 37 °C, added: cysteine 10 mM).
The remaining compound of `C/C(=N\c1ccc(O)cc1)c1cc2ccccc2n1C` is reported as 98.5 ± 9.7% (rat plasma; 0.78 ng/mL, 4 h, room temperature; reference: nominal concentration).
`O=C1NCCc2nc(OCc3cccc(F)c3)ccc21`: “Irwin test score” 0 (item: Vasodilatation; Sprague-Dawley rat male; oral, 100 mg/kg, 30 min; direction not given).
For `Cc1ccc(C(=O)N(CCCN)C(c2nc3snc(C)c3c(=O)n2Cc2ccccc2)C(C)C)cc1` (centres unmarked), “grade ≥3 hyperbilirubinemia patients” read 0% (human patients; intravenous, 10 mg/day).
`CN(CCC(=O)O)C(=O)c1ccc2c(c1)CC[C@@H]1[C@@H]2CC[C@]2(C)C(c3cncc(F)c3)=CC[C@@H]12` has a direct bilirubin of 0.26 mg/dL (premenopausal women with endometriosis pain, serum; 60 mg twice daily, end of treatment, completers, median).
For `C[C@H]1CNCCCN1S(=O)(=O)c1cccc2cncc(F)c12`, “subjects with conjunctival hyperaemia” read 100% (healthy adult men; ocular, 1 drop per eye twice daily, 8 days, adverse event).
`Cc1nc(C)c(-c2ccnc(Nc3ccc(F)cc3)n2)s1` gave a logD of 4.2 (octanol/buffer; 67 µM, pH 7.4).
Under “creatinine-corrected cobalt concentration”, `[O]=[Co].[O]=[Co][O][Co]=[O]` is recorded as 0.82 µg/µmol creatinine (rat, male, urine, 24-h collection; oral gavage, single, 300 mg/kg (220 mg Co/kg), day 1, vehicle 0.5% HPMC).
`Cc1cc(NC2CCN(C(=O)OC3CCN(C(=O)/C=C/CN(C)C)C3)CC2)n2ncc(C(C)C)c2n1` (centres unmarked): “patients with adverse event” 18% (Phase I dose escalation CTCAE v4.0, item: Anemia; patients with advanced solid tumours; dose not given, TIW dosing any grade).
`COc1cc(NC(=O)CSc2nncn2C)cc(OC)c1OC` has a logD of 0.58 (octanol/buffer; pH 7.4).
`Cc1cc(Nc2cc3ncccc3c(N[C@@H]3C[C@H]4CC[C@@H](C3)N4CCC#N)n2)n[nH]1` — result for “skin subcutaneous disorders incidence”: 17% (healthy human subjects; oral, 100 mg, 14 days, multiple ascending dose).

Repeated from above:
For `CCC(C)n1ncn(-c2ccc(N3CCN(c4ccc(OCC5COC(Cn6cncn6)(c6ccc(Cl)cc6Cl)O5)cc4)CC3)cc2)c1=O` (centres unmarked), the adverse events was 7% (healthy human volunteers; oral, 200 mg, event Diarrhoea, continued dosing).
For `C[C@@H]1CCC[C@H](n2cnc(-c3cc(Cl)ccc3-n3cc(Cl)nn3)cc2=O)c2cc(ccn2)-c2c(cnn2C(F)F)NC1=O`, the oral bioavailability was 14% (rabbit; oral, 20 mg/kg; reference: 0.8 mg/kg intravenous).
`CCN1CCN(Cc2ccc(Nc3ncc(F)c(-c4cc(F)c5nc(CO)n(C(C)C)c5c4)n3)nc2)CC1` has an intrinsic clearance of 452 L/h (human, liver; population PK model estimate).
For `Cc1nc2cccc(OCC(C)(C)C(=O)NC(C)C)c2c(N)c1C(=O)O`, the Cmax ratio was 0.62 (female Sprague-Dawley rat, plasma; dietary, 100 mg/kg/day; reference: day 90 over day 7).
With `C=CC(=O)Nc1cc(Nc2nccc(-c3cn(C4CC4)c4ccccc34)n2)c(OC)cc1N(C)CCN(C)C` the HGB was 152 ± 4.62 g/L (BALB/c nude mouse, LU0387 xenograft, blood; oral, 40 mg/kg).
For `C=CC(=O)N1CCC([C@@H]2CCNc3c(C(N)=O)c(-c4ccc(Oc5ccccc5)cc4)nn32)CC1`, “stability relative error” read -0.8% (rat plasma; 400 ng/mL, 21 days, -80 °C; reference: nominal concentration).
